Measurements of several laboratories.
Medium: plasma

Structure (SMILES) | system | setting | Tmax [h]
O=C(O)COC[C@H]1CC[C@H](COC(=O)N(c2ccccc2)c2ccc(Cl)cc2)CC1 | human | oral, 30 µg, multiple doses, twice daily, steady state | 1
CNC(=O)c1ccc(-c2cnc3ncc(Cc4ccc5ncccc5c4)n3n2)cc1F | human | oral, 200 mg twice daily, multiple doses, steady state, patients | 1.92
CCCC[C@H](NC(C)=O)C(=O)N[C@H]1CCC(=O)NC[C@@H](C(=O)N[C@@H](Cc2c[nH]c3ccccc23)C(N)=O)NC(=O)[C@H](CCCNC(=N)N)NC(=O)[C@@H](Cc2ccccc2)NC(=O)[C@H](Cc2c[nH]cn2)NC1=O | human | subcutaneous, 3 mg, multiple doses, once daily | 0.5
C#C[C@]1(CO)O[C@@H](n2cnc3c(N)nc(F)nc32)C[C@@H]1O | human | oral, 5 mg, single dose, fasted | 0.5
C[C@H]1CO[C@@H]2Cn3cc(C(=O)NCc4ccc(F)cc4F)c(=O)c(O)c3C(=O)N12 | human | oral, 30 mg, single dose, fed | 3.01
CN(C)Cc1c(C(=O)NCCOc2ccc(C(=O)NO)cc2)oc2ccccc12 | human | oral, 40 mg, single dose, patients | 0.5
C[C@H](N)C(=O)N1C[C@H](CCCB(O)O)[C@](N)(C(=O)O)C1 | human | oral, 75 mg twice daily, multiple doses, patients | 4.1
CNc1nc(Nc2ccc(-n3cnc(C)n3)c(OC)c2)nc2c1CC[C@H]2c1ccc(F)cc1 | human | oral, 300 mg, fed, healthy volunteers | 5
CC(=O)N[C@H]1CC[C@H](NC(=O)CN2CCN(c3nncc(-c4ccc(C)cc4)n3)CC2)CC1 | human | oral, 400 mg, single dose, fasted, healthy volunteers | 1.3
Cc1cn([C@H]2C[C@H](N=[N+]=[N-])[C@@H](CO)O2)c(=O)[nH]c1=O | male human | oral, 600 mg, single dose | ≤ 0.583
CS(=O)(=O)n1cc2c(n1)CN([C@H]1CO[C@H](c3cc(F)ccc3F)[C@@H](N)C1)C2 | male human | oral, 100 mg, multiple doses, healthy volunteers | 1
Nc1cc(F)ccc1NC(=O)c1ccc(CNC(=O)/C=C/c2cccnc2)cc1 | human | oral, 40 mg, patients | 2.42
CS(=O)(=O)n1cc2c(n1)CN([C@H]1CO[C@H](c3cc(F)ccc3F)[C@@H](N)C1)C2 | male human | oral, 50 mg, single dose, fasted | 1
Nc1ncc(-c2cnn(CCO)c2)c2scc(-c3ccc(NC(=O)Nc4cccc(F)c4)cc3)c12 | human | oral, 640 mg, patients | 2.7
C[C@H]1[C@H](F)C[C@@H](C(=O)NCc2cc(-c3cnc(C(F)(F)F)nc3)ncc2C(F)(F)F)N1S(=O)(=O)c1ccc(F)cc1 | human | oral, single dose, fasted, healthy volunteers | 3.5 to 7
Cc1[nH]c2ccccc2c1CCNCc1ccc(/C=C/C(=O)NO)cc1 | human | oral, 20 mg, single dose, fed | 4
CCOc1ccc(Cc2cc([C@]34OC[C@](CO)(O3)[C@@H](O)[C@H](O)[C@H]4O)ccc2Cl)cc1 | human | oral, 15 mg, single dose, healthy volunteers | 1
CCCOc1ccc([C@H]2CNC(=O)N2c2ccc3[nH]cnc3c2)cc1 | human | oral, 100 mg, single dose, fasted | 0.5
C[C@@H](N)c1cc(Cl)ccc1Cn1c(=S)[nH]c(=O)c2[nH]ccc21 | human | oral, 2.5 mg, multiple doses, once daily, healthy volunteers | 1.77
CC#CC(=O)N[C@H]1CCCN(c2c(F)cc(C(N)=O)c3[nH]c(C)c(C)c23)C1 | human | oral, 0.3 mg, single dose | 0.5
C[C@@H]1CCC[C@H](n2cnc(-c3cc(Cl)ccc3-n3cc(Cl)nn3)cc2=O)c2cc(ccn2)-c2c(cnn2C(F)F)NC1=O | human | oral, 500 mg, single dose, fasted, healthy volunteers | 3
O=C(c1nc2n(n1)[C@H](c1ccccc1)C[C@@H]2F)C1CC1 | human | oral, 75 mg, single dose, fasted, healthy volunteers | 3
C=C(C)[C@@H]1CC[C@]2(NCCN3CCS(=O)(=O)CC3)CC[C@]3(C)[C@H](CC[C@@H]4[C@@]5(C)CC=C(C6=CC[C@@](CF)(C(=O)O)CC6)C(C)(C)[C@@H]5CC[C@]43C)[C@@H]12 | human | oral, 80 mg, multiple doses, once daily, patients | 4.58
CN(C)C/C=C/C(=O)Nc1cc2c(Nc3ccc(F)c(Cl)c3)ncnc2cc1O[C@H]1CCOC1 | human | oral, 40 mg, multiple doses, once daily, steady state, patients | 2.95
CNCc1ccc(-c2[nH]c3cc(F)cc4c3c2CCNC4=O)cc1 | human | oral, 600 mg, single dose, fed | 7.83
O=C(O)C[C@H](O)C[C@H](O)/C=C/c1c(C2CC2)nc2ccccc2c1-c1ccc(F)cc1 | human | oral, 2 mg, multiple doses, once daily | 0.68
COc1cccc(-c2ccc(NC(=O)C3=C(C(=O)O)CCC3)c(F)c2)c1 | male human | oral, 10 mg, single dose, fasted, healthy volunteers | 3.17
O=C(c1cccnc1-c1ccncc1)N1CCC(O)(Cc2ccccc2)CC1 | human | oral, 400 mg, multiple doses, once daily, healthy volunteers | 0.33

A few entries again:
Structure (SMILES) | system | setting | Tmax [h]
C[C@@H](N)c1cc(Cl)ccc1Cn1c(=S)[nH]c(=O)c2[nH]ccc21 | human | oral, 2.5 mg, multiple doses, once daily, healthy volunteers | 1.77
Cc1[nH]c2ccccc2c1CCNCc1ccc(/C=C/C(=O)NO)cc1 | human | oral, 20 mg, single dose, fed | 4
CNCc1ccc(-c2[nH]c3cc(F)cc4c3c2CCNC4=O)cc1 | human | oral, 600 mg, single dose, fed | 7.83
CS(=O)(=O)n1cc2c(n1)CN([C@H]1CO[C@H](c3cc(F)ccc3F)[C@@H](N)C1)C2 | male human | oral, 50 mg, single dose, fasted | 1
